Results of several laboratories.
A part holds a random share of what one study measured. Positions count from the first letter of the parent shown.

Series 1
Target: ATF3, bZIP domain (human)
Technique: DHFR protein complementation
Sample: yeast
Notes: single substitutions, most at no-binding floor
Baseline: wild-type JUN-FOS pair
Direction: higher = stronger binding
Parent: JUN, bZIP domain (human); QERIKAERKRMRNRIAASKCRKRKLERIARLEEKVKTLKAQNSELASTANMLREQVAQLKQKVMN; partner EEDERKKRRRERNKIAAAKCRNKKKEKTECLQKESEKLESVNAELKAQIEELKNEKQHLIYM
| Substitution | binding fitness |
| --- | --- |
| Q41A | -0.172 natural log |
| L38I | -0.704 natural log |
| A29N | -0.197 natural log |
| L38T | -0.949 natural log |
| A40D | -0.207 natural log |
| R30E | 0.0579 natural log |
| V56Y | -1.26 natural log |
| T48M | -0.106 natural log |
| E32V | -0.217 natural log |
| K36S | -0.112 natural log |
| V56S | -1.42 natural log |
| R53W | -0.612 natural log |
| I28C | -0.33 natural log |
| E54N | -0.268 natural log |
| R53A | -0.125 natural log |
| A40P | -1.37 natural log |
| A40Y | -0.348 natural log |
| Q55P | -1.08 natural log |
| A49V | -0.0754 natural log |
| I28Q | -0.0828 natural log |
| A46R | -0.0648 natural log |
| S47Q | -0.0636 natural log |
| A46N | -0.0599 natural log |

Series 2
Target: Prothrombin, mature alpha-thrombin (F2, Homo sapiens, UniProt P00734)
Technique: aptamer microarray, sandwich
Form: DNA with 2'F-ANA
Sample: in vitro
Concentration: 200 nM
Notes: whole 15-mer aptamer, many near background
Added: Cy3 exosite-II aptamer, 400 nM
Direction: higher = stronger binding
Oligonucleotide: GGTTGGTGTGGTTGG
| Modification | mean fluorescence intensity [a.u.] |
| --- | --- |
| 2'F-ANA at 4 5 6 10 11 13 15 | 48.9 |
| 2'F-ANA at 1 2 4 5 8 10 12 13 | 46.9 |
| 2'F-ANA at 1 2 4 5 6 8 9 12 14 | 47.2 |
| 2'F-ANA at 1 3 4 8 11 13 15 | 152 |
| 2'F-ANA at 1 2 3 4 6 7 9 10 11 15 | 58 |
| 2'F-ANA at 1 2 4 5 7 11 13 14 | 45.7 |
| 2'F-ANA at 2 5 7 8 9 10 12 14 15 | 59.1 |
| 2'F-ANA at 1 2 4 8 9 11 14 15 | 51.7 |
| 2'F-ANA at 2 3 6 7 8 11 14 15 | 355 |
| 2'F-ANA at 1 4 5 8 9 14 15 | 53.9 |
| 2'F-ANA at 3 4 7 8 14 15 | 382 |
| 2'F-ANA at 1 3 5 7 8 9 10 11 13 14 15 | 53 |
| 2'F-ANA at 5 6 7 8 11 14 | 183 |
| 2'F-ANA at 1 2 4 6 7 8 12 13 | 237 |
| 2'F-ANA at 3 5 6 7 8 13 14 15 | 66.4 |
| 2'F-ANA at 1 2 4 6 7 11 12 13 | 135 |
| 2'F-ANA at 3 6 7 10 11 15 | 488 |
| 2'F-ANA at 1 5 6 7 10 12 14 15 | 57.5 |
| 2'F-ANA at 2 8 10 12 13 14 15 | 82.2 |

Series 3
Target: Sal-like protein 4, full length isoform B (SALL4, Homo sapiens, UniProt Q9UJQ4-2, residues 1-616)
Technique: universal PBM
Form: double-stranded DNA, one strand shown
Sample: in vitro
Concentration: not given
Notes: 8-mer, flanks averaged, mean of replicates
Direction: higher = stronger binding
Residues (chain): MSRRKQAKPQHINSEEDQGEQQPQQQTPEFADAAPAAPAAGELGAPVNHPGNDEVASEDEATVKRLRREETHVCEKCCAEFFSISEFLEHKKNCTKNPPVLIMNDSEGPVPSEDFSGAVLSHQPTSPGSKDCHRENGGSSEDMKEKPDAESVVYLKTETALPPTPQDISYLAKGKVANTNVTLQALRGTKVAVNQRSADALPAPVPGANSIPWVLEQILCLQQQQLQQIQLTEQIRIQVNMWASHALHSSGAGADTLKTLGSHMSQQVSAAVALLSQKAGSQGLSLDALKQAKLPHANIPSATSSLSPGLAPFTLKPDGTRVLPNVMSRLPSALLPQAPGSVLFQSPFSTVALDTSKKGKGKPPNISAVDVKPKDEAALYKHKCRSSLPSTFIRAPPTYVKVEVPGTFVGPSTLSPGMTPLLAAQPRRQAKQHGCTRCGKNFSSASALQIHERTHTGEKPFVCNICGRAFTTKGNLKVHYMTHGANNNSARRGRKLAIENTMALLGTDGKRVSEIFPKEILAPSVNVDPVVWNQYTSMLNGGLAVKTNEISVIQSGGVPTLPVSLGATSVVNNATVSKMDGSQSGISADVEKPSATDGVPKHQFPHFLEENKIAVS
| Oligonucleotide | E-score |
| --- | --- |
| CGACTAAC | -0.0188 |
| ATGGAGCG | -0.0613 |
| ACACTAGT | 0.107 |
| TGAACTAA | 0.119 |
| AAATAGAA | 0.179 |
| CAAAGTGC | -0.0925 |
| AGCAGAGA | -0.113 |
| CACGCGGG | -0.214 |
| CCTAGCAG | -0.16 |
| GCGACGCA | -0.189 |
| CAAATTTG | 0.117 |
| ATCGACTG | -0.135 |
| ACCCTTCT | -0.00832 |
| TCGGAAGA | -0.117 |
| ACTCTGGG | -0.12 |
| CGAAGCTA | 0.0909 |
| CAGCTTCG | -0.185 |
| GCAGCCAC | -0.209 |
| ACAGCTCG | -0.155 |
| CCAGTATC | -0.111 |
| AAGATGCC | -0.1 |
| ATCTCAGC | -0.0634 |
| TCTTTCCA | -0.0805 |
| ACCGGTTA | -0.0714 |

Series 4
Target: ABI1, truncated, D143A, DHFR fusion (Arabidopsis thaliana)
Technique: DHFR PCA, deep sequencing
Sample: yeast
Notes: methotrexate growth selection, single substitutions
Added: (+)-ABA 1.4 µM
Baseline: wild-type fitted maximum
Direction: higher = stronger binding
Parent: PYL1, truncated, DHFR fusion (Arabidopsis thaliana); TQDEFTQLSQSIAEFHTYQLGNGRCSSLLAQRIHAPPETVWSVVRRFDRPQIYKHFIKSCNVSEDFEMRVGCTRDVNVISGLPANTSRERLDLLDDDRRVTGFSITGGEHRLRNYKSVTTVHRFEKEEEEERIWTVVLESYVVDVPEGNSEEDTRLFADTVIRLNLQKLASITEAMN; partner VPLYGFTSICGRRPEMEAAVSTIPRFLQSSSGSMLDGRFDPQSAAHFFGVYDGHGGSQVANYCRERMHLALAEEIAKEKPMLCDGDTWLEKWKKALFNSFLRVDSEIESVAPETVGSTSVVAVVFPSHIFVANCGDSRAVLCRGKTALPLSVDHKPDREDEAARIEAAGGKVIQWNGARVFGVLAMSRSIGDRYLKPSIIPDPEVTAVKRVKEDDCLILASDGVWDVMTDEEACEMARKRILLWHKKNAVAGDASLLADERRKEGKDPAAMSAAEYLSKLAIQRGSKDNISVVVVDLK
| Substitution | relative binding score |
| --- | --- |
| G102R | 0.937% |
| R32G | 1.8% |
| F15Q | 9.68% |
| R123V | 13.8% |
| P50Y | -0.53% |
| T101R | -4.74% |
| H34S | 47.3% |
| H34M | 60.8% |
| S26V | 4% |
| L166H | 21.6% |
| V118H | 34.9% |
| E147H | 47.9% |
| L20G | 58.3% |
| P83K | -1.21% |
| Q7G | 55.4% |
| Y141I | 2.5% |
| G107E | 12.5% |
| V43R | -11.2% |
| R155E | -11% |
| R90K | 38.1% |
| D48H | -10.5% |
| T160P | -0.874% |

Series 5
Target: CCNB3, cyclin fold, Cln2 fusion (human)
Technique: yeast growth competition, sequencing
Sample: yeast
Notes: weak parent motif
Baseline: not given
Direction: higher = stronger binding
Parent: CDAN1 docking peptide (human); RGARSQLFPPTEA
| Substitution | normalised enrichment score |
| --- | --- |
| RGARSQLFAPTEA [P9A] | 0.124 |
| RGARSQLFPPAEA [T11A] | 0.128 |
| RGARSQLAPPTEA [F8A] | 0.231 |
| AGARSQLFPPTEA [R1A] | 0.098 |
| RGARSQLFPPTAA [E12A] | 0.299 |
| RGARSALFPPTEA [Q6A] | -0.157 |

Series 6
Target: Fragile X messenger ribonucleoprotein 1, C-terminal low-complexity region (Fmr1, Mus musculus, UniProt P35922)
Technique: RNA Bind-n-Seq
Form: RNA
Sample: in vitro
Concentration: 200 nM
Notes: whole 134-nt RNA, ends assumed
Added: 150 mM KCl
Baseline: input library
Direction: higher = stronger binding
Constant ends, left off below: GGGAGUUCUACAGUCCGACGAUC … UGGAAUUCUCGGGUGUCAAGG
| Oligonucleotide | log2 enrichment |
| --- | --- |
| UAUUCCAAUGUCUGUGGGAAUAAUUGACACAAGGACGAAUCCAAGCCAGUUAAAUGCGGUUGAAUUUCUGUGGGACCCAGCAAAACGCAC | -0.149 |
| UCCUGUGCUACACAUCGUAUGUACCGAAUCGGGGAGGGGUUUUUGGGGUUUUUUUGGGGAAAGUAUUAUGUUACGCCGUUCGGAUCUGCA | 0.827 |
| UCCUGUGCUACACAUCGUAUGUACCGAAUCGGAAAAAAAGGGAAAAAAAGGAAAAAAAGGAAAGUAUUAUGUUACGCCGUUCGGAUCUGC | -0.303 |
| GCAGGAAGUAAAAACAAAUGGAAAUGCUUCGGAUAGUGGCAGGGGUGGGGGUUGCUAAGGAAAGGGUGGGAUGGGAGCGGGUAAAGAGUU | 0.0468 |
| UGGGAGGUGGAUUUUGUUUAUUUUUUUAGCUCAUUUCCAGGGGUGGGAAUAUUUUUUUAAUAUGUGUCAUGAAUAAAGUUGUUUUUGAAA | 0.219 |
| CCUGUGCUACACAUCGUAUGUACCGAAUCGGGAAAAAAAGGAAAAAAAGGAAAAAAAGGGGAAAGUAUUAUGUUACGCCGUUCGGAUCUG | -1.09 |
| UGGAUGGACACCAUUAUCGUCGUGUGGCACGGGUUGACCUAAGGAAGAAGACAGAGACUUUCUCCACAAGAAGGGUUAAGUCUGGGCUGU | -0.115 |
| ACCAUGCAGGUGGGCAUCUUUGGGAAGUGGGGCAGGGGGGGGAUAGGGAGGGGGGUAACACUUUGGGAACAGGUGGUCCCAGGUCGUUUC | 0.609 |
| CUCAAGUCCUGUGCUACACAUCGUAUGUACCGAAUCGGAAGGGAAGGGGAAGGAAAGUAUUAUGUUACGCCGUUCGGAUCUGCACUUCCA | -0.0412 |
| CACAGACAGCACGCACCCACACAGACACAGAGGGAAGGGGUUGGGAUGGGGACAGGGUGCACAGCAGGGCGGGGUAGGACCCCAGCCCCU | 1.23 |
| UUUUAUUCUUCCAUCUUUUCCCACAGGUGGCAGCUGCCAACAAGAAGCAUUAGAACAAACCAUGCUGGGUUAAUAAAUUGCCUCAUUCGU | -0.0822 |
| UGGCCCUGGUGGCAUGCGGGGAGGAAGAGGUGGCCUCAUGGAUCGUGGUGGUCCCGGUGGAAUGUUCAGAGGUGGCCGUGGUGGAGACAC | 0.0967 |
| AGUCCUGUGCUACACAUCGUAUGUACCGAAUCAAAUUUUUAAACCCCCAAACCCAAAAAAGUAUUAUGUUACGCCGUUCGGAUCUGCACU | -0.198 |
| GUGCUACACAUCGUAUGUACCGAAUCGGGGAAAAAAAGGGGUUUUUUUGGGGUUUUUUUGGGGAAAGUAUUAUGUUACGCCGUUCGGAUC | 0.425 |

Other studies, line by line
| Molecule | target | test | test system | setting | scale | quantity | value |
| --- | --- | --- | --- | --- | --- | --- | --- |
| PhoQ, residues 284 288 289 292 302 303 ALASRC | PhoP, residues 12 14 15 18 19 STWGI (Escherichia coli, UniProt P23836) | Sort-seq, refers to: YFP reporter | E. coli | PhoQ-PhoP variant library, added: 10 µM Mg2+ | baseline: high Mg2+ state, higher = stronger signaling | fold induction | 2.26 |

For quick reference, copied from above (series 2):
| Modification | mean fluorescence intensity [a.u.] |
| --- | --- |
| 2'F-ANA at 1 2 4 5 7 11 13 14 | 45.7 |
| 2'F-ANA at 2 5 7 8 9 10 12 14 15 | 59.1 |
| 2'F-ANA at 1 2 4 8 9 11 14 15 | 51.7 |
| 2'F-ANA at 2 3 6 7 8 11 14 15 | 355 |
| 2'F-ANA at 1 4 5 8 9 14 15 | 53.9 |
| 2'F-ANA at 3 4 7 8 14 15 | 382 |
| 2'F-ANA at 1 3 5 7 8 9 10 11 13 14 15 | 53 |
| 2'F-ANA at 5 6 7 8 11 14 | 183 |
| 2'F-ANA at 1 2 4 6 7 8 12 13 | 237 |
| 2'F-ANA at 3 5 6 7 8 13 14 15 | 66.4 |
| 2'F-ANA at 1 2 4 6 7 11 12 13 | 135 |
